Assay results gathered from unrelated publications.
Every numbered part comes from another study and shows a few of its results, in no order. Positions count from the first letter of the parent shown.

Block 1 — technique: protein binding microarray; form: double-stranded DNA, one strand shown; matrix: in vitro; concentration: not given; relative to: not given; direction: higher = stronger binding
Target: Histone acetyltransferase KAT6A, both winged helices, GST fusion (KAT6A, Homo sapiens, UniProt Q92794, residues 1-181)
Notes: 8-mer, flanks averaged, mean of 2 arrays, mostly near background
Construct (chain): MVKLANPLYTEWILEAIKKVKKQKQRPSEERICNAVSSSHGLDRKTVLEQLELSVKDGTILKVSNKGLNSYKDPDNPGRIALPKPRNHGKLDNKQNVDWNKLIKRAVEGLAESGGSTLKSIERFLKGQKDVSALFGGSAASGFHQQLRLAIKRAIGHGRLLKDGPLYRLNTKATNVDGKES
Sequence | E-score
AGCGGACT | 0.115
CCTACAGG | -0.0675
GACAAACC | -0.117
AGTGAGTA | -0.0614
GAGATTGC | 0.0971
GGACGCTA | 0.186
ACGGCTGC | 0.183

Block 2 — target: CCND2, cyclin fold, Cln2 fusion (human); technique: yeast growth competition, sequencing; matrix: yeast; notes: weak parent motif; relative to: not given; direction: higher = stronger binding
Parent: SAMHD1 docking peptide (human); ASKSRVQLFKDDP
Substitution | normalised enrichment score
S4C | 0.561
V6E | 0.102
Q7W | 0.157
K10M | 0.387
D11K | -0.167
K3Q | -0.0831
K10R | -0.0254
K3Y | -0.236
V6D | -0.0987

Block 3 — technique: RNA Bind-n-Seq; form: RNA; matrix: in vitro; concentration: 100 nM; relative to: input RNA pool; direction: higher = stronger binding
Target: RING finger protein unkempt homolog, zinc fingers 1-6, SBP tag (UNK, Homo sapiens, UniProt Q9C0B0, residues 30-357)
Sequence of UniProt Q9C0B0 (30-357, looked up): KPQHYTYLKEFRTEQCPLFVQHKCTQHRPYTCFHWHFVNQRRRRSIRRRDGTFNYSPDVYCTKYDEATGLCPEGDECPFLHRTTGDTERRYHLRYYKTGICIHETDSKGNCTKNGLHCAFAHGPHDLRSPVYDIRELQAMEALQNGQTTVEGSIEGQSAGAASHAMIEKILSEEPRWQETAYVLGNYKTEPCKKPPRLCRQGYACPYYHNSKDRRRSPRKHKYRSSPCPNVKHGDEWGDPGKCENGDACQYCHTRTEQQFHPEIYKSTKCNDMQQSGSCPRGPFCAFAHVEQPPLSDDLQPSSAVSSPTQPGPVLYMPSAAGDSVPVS
Notes: RNA with constant flanks, vertebrate orthologous sites, ends assumed
Shared flanks, not repeated: GGGAGUUCUACAGUCCGACGAUC … CAACAGAGGAUUGAGCAUCA
Sequence | bound/input enrichment
CCUCCAACAGGCAAAUUCAGGAGAGAGAUAGGCUUCAGGGAAUAAAAACUUAUUUAAUAGUGGUGAUUGCAAAGUAUAAAUUUGAUAUAAUUGAGUAAUUUGUGAGGGGUGAUGAUAAAU | 1.07 ratio
UCCCCGUUACCCCUAAAGUAAAACAUUUUUUAAAUUGUGUUGCCACCACUUCUAAAAAUUUAGCAAUAUUAGAAUAGGAUACUAGUGAAGUAAGAAAUUUUGCUUGUUGUUUUGCAAACC | 2.08 ratio
AGAAAAUUUUAAUCAGGAAUCAGAAGGUAGAAGCACAGGACCGUGGUUAUCUUCCUCACUUAGAAAUAGAUGCACACCUUUGUUCUCUAGAAGGAGGCGAGAGGGAAGAGAUGAAUCUUC | 1.11 ratio
AGCAGGCCAGGGAUUGAGGCCCACCUUCCCACAUAUACCAAGUAGAUAUGGAAUCAACAGGAUGGGGCAGCCAAGACCCUGACAGACUCUAACUUAUUGUGAUGGGGAAUAGCGACUUCU | 0.531 ratio
AUGUGCCUGUGCAGUCAUUAGAGUGGGUUCUUCCUUCUCCUGUGAGGAAAAAAGCCCAAAGAGAUUUCUUACACAUCUGACUAUACUGUUGUUUUUAUUCUUUUAUUGUUUUUACAUAUG | 0.813 ratio
ACUGUUGUUAAGCACUGUGUUCCAGACCGUGUCUGACUUAGUGUAACCUAGGAGAUUUUAUAGUUUUAUUUUAAUGAAACCCUGAUUGACGCACAGCAGUGGGGAGAACAGCGUCUUUUA | 2.19 ratio
UGUUGUUAAGCACUGUGUUCCAGACCGUGUCUGACUUUAGUGUAACCUAGGAGAUUUUUAUAGUUUUAUUUUAAUGAAAUCCCGCUUGACGCAGAGCAGCGGGGAGAGCAGUGUCCUCUA | 2.65 ratio
UAUAAUUAUGAAAAUCUAAAGGAUUUUUAAUGUUUAAUUUCCCCUAGCAUCUCUAUUAAGACCUCUUUUUUCCAGGCAGAUCAUUCAGAGUGUGCGAGUGUGUGUGCACAUGUUACAAAG | 1.17 ratio

Further values, each from its own experiment
Molecule | target | test | system | conditions | scale | measurement | value
PhoQ, residues 284 288 289 292 302 303 SCKMEA | PhoP, residues 12 14 15 18 19 SYFRT (Escherichia coli, UniProt P23836) | Sort-seq, item: YFP reporter | E. coli | PhoQ-PhoP variant library, together with: 10 µM Mg2+ | relative to: high Mg2+ state, higher = stronger signaling | fold induction | 9.6

Repeated from above (block 1):
Sequence | E-score
GAGATTGC | 0.0971
